Measured values from different studies.
Each line is one published result; not all experiments were run side by side. Numbers after ± are the reported error.
Method: steady-state kinetics
B1: sacB Y439F (Priestia megaterium, UniProt D5DC07); chain KGNDSKDFNNSYGISHITRDNMVKIPQQQNSDQFKVPAFDESTIKNIASAKGKNASGNTIDLDVWDSWPLQNADGTVATYHGYQIVFALAGDPKDSNDTSVYLFYKKAGDKSIDSWKNAGRVFKDSDKFVPNDPHLKNQTQEWSGSGTLTKDGKVRLFYTDYSGKQYGKQTLTTAQVNMSQPNDNTLKVDGVEDYKSIFDGDGKIYQTVQQFIDEGGYDTGDNHTLRDPHYIEDNGHKYLVFEANTGTEDGYQGEDSLYNRAYYGGNNPFFQSEKKKLLEGSNKEKASLANGALGIIELNDDYTLKKVMKPLITSNTVTDEIERANIFKKDGKWYLFTDSRGSKMTIDGIGQDDVYMLGYVSNTLTGKYKPLNDTGLVLHMDLDPNDKTFTYSHFAVPQTKGDNVVITSFMTNRGFYEDNHSTFAPSFLVNIDGSKTSVVKDRVLEQGQLTVDED
B2: Nudt8 (Mus musculus, UniProt Q9CR24); chain MLPDGLSAEDEQRCRQLLARTTARLRSRPAAAAVLVPLCLVRGVPALLYTLRSSRLVGRHKGEVSFPGGKCDPDDQDVIHTALRETQEELGLEVPKEHVWGVLQPVYDREKATIVPVLANVGPLDLQSLRPNLEEVDEVFEMSLAHLLQTQNQGYTHFCQGGHFSYTLPVFLHGPHRVWGLTAVITELTLKLLAPGFYQPSLAVPELPRG
B3: HARS1 Y330C (Homo sapiens, UniProt P12081); chain MAERAALEELVKLQGERVRGLKQQKASAELIEEEVAKLLKLKAQLGPDESKQKFVLKTPKGTRDYSPRQMAVREKVFDVIIRCFKRHGAEVIDTPVFELKETLMGKYGEDSKLIYDLKDQGGELLSLRYDLTVPFARYLAMNKLTNIKRYHIAKVYRRDNPAMTRGRYREFYQCDFDIAGNFDPMIPDAECLKIMCEILSSLQIGDFLVKVNDRRILDGMFAICGVSDSKFRTICSSVDKLDKVSWEEVKNEMVGEKGLAPEVADRIGDYVQQHGGVSLVEQLLQDPKLSQNKQALEGLGDLKLLFEYLTLFGIDDKISFDLSLARGLDCYTGVIYEAVLLQTPAQAGEEPLGVGSVAAGGRYDGLVGMFDPKGRKVPCVGLSIGVERIFSIVEQRLEALEEKIRTTETQVLVASAQKKLLEERLKLVSELWDAGIKAELLYKKNPKLLNQLQYCEEAGIPLVAIIGEQELKDGVIKLRSVTSREEVDVRREDLVEEIKRRTGQPLCIC
B4: UGT1A9 (Homo sapiens, UniProt O60656); chain GKLLVVPMDGSHWFTMRSVVEKLILRGHEVVVVMPEVSWQLGRSLNCTVKTYSTSYTLEDLDREFKAFAHAQWKAQVRSIYSLLMGSYNDIFDLFFSNCRSLFKDKKLVEYLKESSFDAVFLDPFDNCGLIVAKYFSLPSVVFARGILCHYLEEGAQCPAPLSYVPRILLGFSDAMTFKERVRNHIMHLEEHLLCHRFFKNALEIASEILQTPVTEYDLYSHTSIWLLRTDFVLDYPKPVMPNMIFIGGINCHQGKPLPMEFEAYINASGEHGIVVFSLGSMVSEIPEKKAMAIADALGKIPQTVLWRYTGTRPSNLANNTILVKWLPQNDLLGHPMTRAFITHAGSHGVYESICNGVPMVMMPLFGDQMDNAKRMETKGAGVTLNVLEMTSEDLENALKAVINDKSYKENIMRLSSLHKDRPVEPLDLAVFWVEFVMRHKGAPHLRPAAHDLTWYQYHSLDVIGFLLAVVLTVAFITFKCCAYGYRKCLGKKGRVKKAHKSKTH
B5: ycjS (Escherichia coli, UniProt P77503); chain MKSAMTSSPLRVAIIGAGQVADKVHASYYCTRNDLELVAVCDSRLSQAQALAEKYGNASVWDDPQAMLLAVKPDVVSVCSPNRFHYEHTLMALEAGCHVMCEKPPAMTPEQAREMCDTARKLGKVLAYDFHHRFALDTQQLREQVTNGVLGEIYVTTARALRRCGVPGWGVFTNKELQGGGPLIDIGIHMLDAAMYVLGFPAVKSVNAHSFQKIGTQKSCGQFGEWDPATYSVEDSLFGTIEFHNGGILWLETSFALNIREQSIMNVSFCGDKAGATLFPAHIYTDNNGELMTLMQREIADDNRHLRSMEAFINHVQGKPVMIADAEQGYIIQQLVAALYQSAETGTRVEL
B6: protein (Enterobacter lignolyticus, UniProt E3G9I4); chain MSQVQSGILPEHCRAAIWIEANVKGDVNALRECSKVFADKLAGFEAQFPDAHLGAVVAFGHDTWRALSGGVGAEELKDFTPYGKGLAPATQYDVLIHILSLRHDVNFSVAQAAMAAFGDAVEVKEEIHGFRWVEERDLSGFVDGTENPAGEETRREVAVIKDGVDAGGSYVFVQRWEHNLKQLNRMSVHDQEMMIGRTKVANEEIDGDERPETSHLTRVDLKENGKGLKIVRQSLPYGTASGTHGLYFCAYCARLYNIEQQLLSMFGDTDGKRDAMLRFTKPVTGGYYFAPSLDKLLAL
B7: GTPBP3 A162P (Homo sapiens, UniProt Q969Y2); chain TRRSSGAPAPGSGATIFALSSGQGRCGIAVIRTSGPASGHALRILTAPRDLPLARHASLRLLSDPRSGEPLDRALVLWFPGPQSFTGEDCVEFHVHGGPAVVSGVLQALGSVPGLRPAEAGEFTRRAFANGKLNLTEVEGLPDLIHAETEAQRRQALRQLDGELGHLCRGWAETLTKALAHVEAYIDFGEDDNLEEGVLEQADIEVRALQVALGAHLRDARRGQRLRSGVHVVVTGPPNAGKSSLVNLLSRKPVSIVSPEPGTTRDVLETPVDLAGFPVLLSDTAGLREGVGPVEQEGVRRARERLEQADLILAMLDASDLASPSSCNFLATVVASVGAQSPSDSSQRLLLVLNKSDLLSPEGPGPGPDLPPHLLLSCLTGEGLDGLLEALRKELAAVCGDPSTDPPLLTRARHQHHLQGCLDALGHYKQSKDLALAAEALRVARGHLTRLTGGGGTEEILDIIFQDFCVGK
B8: enzyme (Thermobifida fusca, UniProt Q47RK4); chain MTDVYILDAVRTPFGRYGGALSGIRPDDLAAHVLRALAERSPGLDPAAVDDVFFGDANGAGEDNRNVARMAALLAGWPTSVPGVTLNRLCGSGMESVIAANRAIAVGDASLAVAGGVESMSRAPWVLPKPAQGFPTGHETLYSTTLGWRMVNPAMPEQWTVSLGESTEQVAATYGISRAEQDAFALRSHERAARAWAEGVFDAEITQIPGAELERDESIRETSAEKLAALKPAFRPDGTITAGNASPLNDGAAALLIGDAAAAERVGREPLARIVSRGVAAVDPDVFGIGPVQAAEIALRRAGIGWDDLSVVELNEAFAAQSLACLKLWPDLDPEIVNPNGGAIAIGHPLGASGARIVGTLAHELHRRGGGWGLAAICIGVGQGLAVVLHR
B9: enzyme (Plasmodium falciparum, UniProt Q8ILK1); chain MTNKFNKINKNNYETREAVYYDKGNRINSNKEKEMKEFKEEELKEFFNKWNPFYKEKLNSEIEKKNFINFDGEKKMENGNNEYFNSYNYIHIHEDMIKDEVRTRTYYDSIRKNEHLIKDKIVLDVGCGTGILSFFAATHGAKHVYSIEKSDIIYTAIKIRDENNLTDKVTFLKGLAEEIELPVDKVDIIISEWMGYCLLYENMLDTVLYCRDKWLKEGGLIFPDKAHMYIAGIEDSLYREEKFDFWKNCYDLNFSSVLPIIKEEVVIDYVDRNFVVTDTCCILTLDLNTCTPDQLSFVSPFQLKMIRKDYLHALVIWFDISFSACHTEVNFTTGPYGAHTHWKQIVLYTDHIITAERNETLKGIFALKRNQKNKRHLDMKLHYIFDGVHTKAKSTQLFNIS
UniProt Q18B70, sequence (whole entry, looked up): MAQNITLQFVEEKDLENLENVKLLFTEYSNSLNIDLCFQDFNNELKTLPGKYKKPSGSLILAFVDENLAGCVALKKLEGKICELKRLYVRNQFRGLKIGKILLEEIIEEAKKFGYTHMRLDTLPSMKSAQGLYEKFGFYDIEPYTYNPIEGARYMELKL
UniProt P49419, sequence (whole entry, looked up): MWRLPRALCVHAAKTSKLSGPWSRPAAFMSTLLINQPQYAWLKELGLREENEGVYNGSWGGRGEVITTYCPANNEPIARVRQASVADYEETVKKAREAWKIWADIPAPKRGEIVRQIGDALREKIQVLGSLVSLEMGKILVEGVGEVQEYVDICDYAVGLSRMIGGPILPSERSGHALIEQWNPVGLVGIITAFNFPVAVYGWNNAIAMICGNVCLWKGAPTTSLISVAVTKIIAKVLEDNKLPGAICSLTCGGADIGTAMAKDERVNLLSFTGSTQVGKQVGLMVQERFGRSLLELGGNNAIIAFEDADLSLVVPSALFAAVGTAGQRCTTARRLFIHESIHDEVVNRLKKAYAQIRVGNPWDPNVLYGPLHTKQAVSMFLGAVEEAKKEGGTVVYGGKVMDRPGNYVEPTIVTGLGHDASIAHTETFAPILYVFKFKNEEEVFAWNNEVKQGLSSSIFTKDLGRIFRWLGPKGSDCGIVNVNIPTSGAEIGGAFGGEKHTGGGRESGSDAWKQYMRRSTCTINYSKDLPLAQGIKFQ
UniProt P94679, sequence (whole entry, looked up): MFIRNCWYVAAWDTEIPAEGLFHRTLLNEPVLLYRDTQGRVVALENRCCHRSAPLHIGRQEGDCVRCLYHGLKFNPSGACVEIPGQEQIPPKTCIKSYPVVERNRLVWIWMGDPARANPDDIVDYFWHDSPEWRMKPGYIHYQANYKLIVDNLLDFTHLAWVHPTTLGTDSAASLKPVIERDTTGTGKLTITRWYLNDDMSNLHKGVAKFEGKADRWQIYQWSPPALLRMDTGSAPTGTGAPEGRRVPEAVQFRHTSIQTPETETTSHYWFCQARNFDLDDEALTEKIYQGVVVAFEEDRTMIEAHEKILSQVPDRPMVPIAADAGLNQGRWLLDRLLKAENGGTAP
UniProt Q01782, sequence (whole entry, looked up): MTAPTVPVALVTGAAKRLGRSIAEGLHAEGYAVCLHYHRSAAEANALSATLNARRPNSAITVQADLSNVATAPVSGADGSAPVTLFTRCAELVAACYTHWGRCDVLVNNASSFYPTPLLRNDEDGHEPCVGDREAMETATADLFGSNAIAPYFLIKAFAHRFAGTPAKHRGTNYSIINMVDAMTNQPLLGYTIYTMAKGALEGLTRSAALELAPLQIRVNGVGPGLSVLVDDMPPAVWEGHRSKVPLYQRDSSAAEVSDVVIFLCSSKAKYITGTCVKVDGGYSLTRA
UniProt O34714, sequence (whole entry, looked up): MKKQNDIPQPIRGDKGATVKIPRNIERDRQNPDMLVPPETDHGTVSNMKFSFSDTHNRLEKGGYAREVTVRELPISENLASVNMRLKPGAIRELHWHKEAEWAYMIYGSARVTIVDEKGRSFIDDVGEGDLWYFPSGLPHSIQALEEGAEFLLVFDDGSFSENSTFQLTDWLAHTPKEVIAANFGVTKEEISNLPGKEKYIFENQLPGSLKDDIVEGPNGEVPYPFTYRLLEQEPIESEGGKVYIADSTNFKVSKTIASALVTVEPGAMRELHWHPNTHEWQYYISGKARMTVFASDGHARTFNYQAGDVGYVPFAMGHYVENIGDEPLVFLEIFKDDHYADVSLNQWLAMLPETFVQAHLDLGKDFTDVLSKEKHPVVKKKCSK
UniProt Q6F4M8, sequence (whole entry, looked up): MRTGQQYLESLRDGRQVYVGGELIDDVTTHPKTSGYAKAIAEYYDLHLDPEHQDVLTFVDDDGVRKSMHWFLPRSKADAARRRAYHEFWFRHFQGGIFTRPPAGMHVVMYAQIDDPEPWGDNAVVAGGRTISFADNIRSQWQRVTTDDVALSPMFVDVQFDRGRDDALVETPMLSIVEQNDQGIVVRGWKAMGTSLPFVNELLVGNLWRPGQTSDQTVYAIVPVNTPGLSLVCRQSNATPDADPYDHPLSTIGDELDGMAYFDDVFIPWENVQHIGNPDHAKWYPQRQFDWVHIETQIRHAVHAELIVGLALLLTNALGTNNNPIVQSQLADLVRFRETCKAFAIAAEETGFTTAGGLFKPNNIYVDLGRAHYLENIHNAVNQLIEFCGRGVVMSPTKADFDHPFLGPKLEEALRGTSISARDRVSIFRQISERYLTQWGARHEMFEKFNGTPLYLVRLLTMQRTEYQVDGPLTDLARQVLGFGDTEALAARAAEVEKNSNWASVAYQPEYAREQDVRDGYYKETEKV
UniProt Q9WXT2, sequence (whole entry, looked up): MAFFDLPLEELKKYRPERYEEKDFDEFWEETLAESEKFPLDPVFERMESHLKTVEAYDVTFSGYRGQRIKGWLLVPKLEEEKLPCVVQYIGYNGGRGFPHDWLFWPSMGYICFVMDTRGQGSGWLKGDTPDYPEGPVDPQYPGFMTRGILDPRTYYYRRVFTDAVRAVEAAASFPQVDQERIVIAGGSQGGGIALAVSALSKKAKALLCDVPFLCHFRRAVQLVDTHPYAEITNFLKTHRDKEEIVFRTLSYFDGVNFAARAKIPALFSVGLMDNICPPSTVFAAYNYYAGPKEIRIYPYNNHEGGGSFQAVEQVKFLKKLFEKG

tsaM1 (Comamonas testosteroni, UniProt P94679)  kcat/Km (COc1cc(C(=O)O)ccc1O; apparent, together with: NADH 1 mM): 230 ± 48 M⁻¹ s⁻¹
protein (Clostridioides difficile, UniProt Q18B70)  kcat/Km (CC(=O)SCCNC(=O)CCNC(=O)[C@H](O)C(C)(C)COP(=O)(O)OP(=O)(O)OC[C@H]1O[C@@H](n2cnc3c(N)ncnc32)[C@H](O)[C@@H]1OP(=O)(O)O; pH 8, 37 °C, together with: L-Thr 10 mM, AcCoA 0-2 mM): 30900 M⁻¹ s⁻¹
enzyme (Acetivibrio thermocellus, UniProt A3DC45)  kcat/Km (NC(=O)c1ccc[n+]([C@@H]2O[C@H](COP(=O)(O)OP(=O)(O)OC[C@H]3O[C@@H](n4cnc5c(N)ncnc54)[C@H](OP(=O)(O)O)[C@@H]3O)[C@@H](O)[C@H]2O)c1; pH 8, 25 °C, cofactor varied, per site): 4e+06 M⁻¹ s⁻¹
B1 (sacB Y439F)  kcat/Km (OC[C@H]1O[C@@](CO)(O[C@H]2O[C@H](CO)[C@@H](O)[C@H](O)[C@H]2O)[C@@H](O)[C@@H]1O; pH 6.6): 1980 M⁻¹ s⁻¹
B2 (Nudt8)  kcat/Km (CC(C)(COP(=O)(O)OP(=O)(O)OC[C@H]1O[C@@H](n2cnc3c(N)ncnc32)[C@H](O)[C@@H]1OP(=O)(O)O)[C@@H](O)C(=O)NCCC(=O)NCCSC(=O)CC(=O)O; pH 8.5, together with: 2 mM Mn2+): 13200 M⁻¹ s⁻¹
protein (Sinorhizobium meliloti, UniProt Q92LZ4)  kcat/Km (NC(=O)C1=CN([C@@H]2O[C@H](COP(=O)(O)OP(=O)(O)OC[C@H]3O[C@@H](n4cnc5c(N)ncnc54)[C@H](OP(=O)(O)O)[C@@H]3O)[C@@H](O)[C@H]2O)C=CC1; pH 7.5, 25 °C, NaCl 150 mM, cofactor varied, together with: hydroxypyruvate 66.7 mM): 773000 ± 154000 M⁻¹ s⁻¹
B3 (HARS1 Y330C)  kcat/Km (Nc1ncnc2c1ncn2[C@@H]1O[C@H](COP(=O)(O)OP(=O)(O)OP(=O)(O)O)[C@@H](O)[C@H]1O; pH 7.5, saturation not reached, together with: histidine, tRNAHis 5 µM, MgCl2 10 mM, KCl 150 mM): 272 M⁻¹ s⁻¹
B4 (UGT1A9)  Km (O=c1c(O)c(-c2ccccc2)oc2cccc(O)c12; pH 7.4, 37 °C): 0.25 µM
PTR1 (Leishmania major, UniProt Q01782)  kcat/Km (C[C@H](O)[C@H](O)C1=Nc2c(nc(N)[nH]c2=O)NC1; pH 7.4, 25 °C, apparent): 170000 M⁻¹ s⁻¹
HCT (Coleus scutellarioides, UniProt E8ZAP2)  kcat/Km (O=C(O)C1=C[C@@H](O)[C@@H](O)[C@H](O)C1; pH 8, pseudo-first-order, together with: p-coumaroyl CoA): 77500 ± 6290 M⁻¹ s⁻¹
B5 (ycjS)  kcat/Km (CO[C@H]1O[C@H](CO)[C@@H](O)C(=O)[C@H]1O; pH 7, 30 °C, together with: NADH 0.3 mM): 23100 ± 2800 M⁻¹ s⁻¹
B6 (protein)  kcat/Km (CCn1c(=NN=c2sc3cc(S(=O)(=O)O)ccc3n2CC)sc2cc(S(=O)(=O)O)ccc21; pH 3.5, 25 °C, together with: H2O2): 5.8e+06 ± 100000 M⁻¹ s⁻¹
oxdC (Bacillus subtilis, UniProt O34714)  kcat/Km (O=C(O)C(=O)O; pH 4.2, 25 °C): 1190 M⁻¹ s⁻¹
axeA (Thermotoga maritima, UniProt Q9WXT2)  kcat/Km (CC(=O)Oc1ccc([N+](=O)[O-])cc1; pH 6.5, 50 °C, temperature uncertain, apparent): 583000 M⁻¹ s⁻¹
B7 (GTPBP3 A162P)  kcat/Km (Nc1nc2c(ncn2[C@@H]2O[C@H](COP(=O)(O)OP(=O)(O)OP(=O)(O)O)[C@@H](O)[C@H]2O)c(=O)[nH]1; pH 8, 37 °C, KCl 300 mM): 170 M⁻¹ s⁻¹
ALDH7A1 (Homo sapiens, UniProt P49419)  kcat/Km (N[C@@H](CCCC=O)C(=O)O; pH 8, 20 °C, together with: NAD+ 2.5 mM): 3600 ± 4800 M⁻¹ s⁻¹
B8 (enzyme)  kcat/Km (CC(C)(COP(=O)(O)OP(=O)(O)OC[C@H]1O[C@@H](n2cnc3c(N)ncnc32)[C@H](O)[C@@H]1OP(=O)(O)O)[C@@H](O)C(=O)NCCC(=O)NCCSC(=O)CCC(=O)O; pH 7.4, 37 °C): 2.5 M⁻¹ s⁻¹
enzyme (Rhodococcus opacus, UniProt Q6F4M8)  kcat/Km (O=[N+]([O-])c1ccc(O)cc1; pH 7.5, 25 °C): 1420 ± 56.1 M⁻¹ s⁻¹
B9 (enzyme)  kcat/Km (C[S+](CC[C@H](N)C(=O)[O-])C[C@H]1O[C@@H](n2cnc3c(N)ncnc32)[C@H](O)[C@@H]1O; 37 °C): 9830 M⁻¹ s⁻¹
